Measured values gathered from unrelated publications.
A part holds a random share of what one study measured. Changes are numbered by the printed parent chain.

Block 1
Target: RNA binding protein fox-1 homolog 2, RRM domain, GST-SBP tag (RBFOX2, Homo sapiens, UniProt O43251-10, residues 100-194)
Method: RNA Bind-n-Seq
Molecule type: RNA
Matrix: in vitro
Tested at: 365 nM
Setting: natural RNA segment, single round, ends assumed
Reference: no-protein control
Direction: higher = stronger binding
Construct (chain): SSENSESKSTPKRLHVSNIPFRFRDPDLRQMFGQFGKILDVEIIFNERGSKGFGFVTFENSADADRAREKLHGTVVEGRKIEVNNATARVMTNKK
Oligonucleotide | RBNS enrichment (R)
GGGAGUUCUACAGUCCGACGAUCACCUCACCUUUAGUGCUUUCUUUAAAGAAGCUGAGGGGUGAAGUUUGCUUACUGAUGUAUCUAUUUGUACAGAUAGUGGAGAGCUAGUUGCUAAUAAUGUCUUGUUUGGGUGGAAUUCUCGGGUGCCAA | 0.635
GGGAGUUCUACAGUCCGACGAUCGCAGAUUGGGGCCAGGGAGUCAGCAAGGCACCCCAGCUCUGUGAUGUGACUUUGGGCGAGUCUCAGUGCCACUUGGUCCCCAGCCAUGGACUCUAUACAGUGAGGGCCACUGGAAUUCUCGGGUGCCAA | 0.232
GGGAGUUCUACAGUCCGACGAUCGAUUGGGGGACCCUGCCUGCCUGGCUUGAGAACAGCCCUGCUGCCCUUUUGAGCCGAGAUUUUGAAGUGGAUGCCCGUCUUGCCAGAAAUGCUGUUCUCACCAGAAUGCCUGGAAUUCUCGGGUGCCAA | 0.472
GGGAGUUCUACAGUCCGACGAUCCAGCCCAGGACACCUACGCCUCGUCCCUCGGUGCCUGGGUCCAGCCCUGUGCCCCUCUGUCCGCCUCUUCACCGCUGGCAGAGGGCAGGCUGCAUGCAGUGGCGGCUGCUUGGAAUUCUCGGGUGCCAA | 3.88
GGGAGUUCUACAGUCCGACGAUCUCUGUGGGUCUGUACCAGGUACUCCAGGCCAGCCCAUGGGCCCGGGGCCUGACCCCAACACCUGCAUGCUGGGUCCAGAGCCUUCUGUUUCACCGUGCGUGGACACUGCUUGGAAUUCUCGGGUGCCAA | 3.56
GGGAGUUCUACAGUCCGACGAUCUUAGUGCUGAUGACAGAGGGGCCGGUCGCAUGGGAUGAGGCUCGGUGGGCCUCUUGCUUGUUGUCUCCUGUCUCCUCAAAUGGCUGAAAACUUGGAGGGUCUCGGUUGUUUGGAAUUCUCGGGUGCCAA | 0.548
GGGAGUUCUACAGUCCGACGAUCGCUGUUUGUAACACAUCUGUUAUUCUGCCUACCUGUACUUUUUGCUGCCCAUCCCUGUUGCCUUUGAGUUUCUUGGAAUUGUGGCUGUCCUCGGAAUCUCUUUUCUAUUCUGGAAUUCUCGGGUGCCAA | 0.408
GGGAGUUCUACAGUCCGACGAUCGUUUACAAGGUGGAGUCGGGGCUUGCUGACUUCUCUUCAUUUGAGGUCACAUUUUUCCCCCGUGGGGAAAUAAACUGACUUUGGACUGCUUCAGUCUCUGCCAUCUUCCAUGGAAUUCUCGGGUGCCAA | 0.382
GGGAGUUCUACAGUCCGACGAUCCCACAUACUUUUGGAAUCCACUGCAAAAUUUUCUACUGGCCAAGUUCAAGUGAGCAAGCCAUGCCCCCAGCUGCAGUCAGAGUUGAGACCGGCUCUGUGGCUCGUAGCUGUGGAAUUCUCGGGUGCCAA | 0.318
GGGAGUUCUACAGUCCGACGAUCGGAAGGCCACUGUUAGUAAGGUGCCAGAGCUGCGCCCUUUCCUCCAUCUGCCAUGCCCUAGCCACUAGAGUCUGGGUUCCAGCAGCUACCUGGGGACAUGUGGCUGCUCUUGGAAUUCUCGGGUGCCAA | 0.295
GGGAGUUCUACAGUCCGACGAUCGAGGGCGACAUGAAGAUGCACUGCUGCGUGGCCGCCUAUAUCUCCGACUAUGCCUUCUUGGGCACUGCACUGCUGCCUCACCAGUGGCAGCACAAGGUGCACUUCAUGGUUGGAAUUCUCGGGUGCCAA | 0.531

Block 2
Target: CREB3L1, bZIP domain (human)
Method: DHFR protein complementation
Matrix: yeast
Setting: single substitutions, most at no-binding floor
Reference: wild-type JUN-FOS pair
Direction: higher = stronger binding
Parent: JUN, bZIP domain (human); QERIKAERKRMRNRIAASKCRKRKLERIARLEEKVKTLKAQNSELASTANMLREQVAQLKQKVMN; partner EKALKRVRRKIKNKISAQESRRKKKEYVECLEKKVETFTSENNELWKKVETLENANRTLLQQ
Variant | binding fitness
L45K | -1.24 natural log
N42W | -1.49 natural log
I28H | -1.36 natural log
L38G | -1.48 natural log
R30C | -1.5 natural log
M51S | -1.39 natural log
Q41E | -1.38 natural log
V56W | -1.41 natural log
A49H | -1.35 natural log
T48L | -1.3 natural log

Block 3
Substance: PhoQ, residues 284 288 289 292 302 303 SSLVEF
Method: Sort-seq
Measured: YFP reporter
Matrix: E. coli
Setting: PhoQ-PhoP variant library
Together with: 10 µM Mg2+
Reference: high Mg2+ state
Direction: higher = stronger signaling
target | fold induction
PhoP, residues 12 14 15 18 19 QYCSL (Escherichia coli, UniProt P23836) | 8.91
PhoP, residues 12 14 15 18 19 STHWV (Escherichia coli, UniProt P23836) | 1.02
PhoP, residues 12 14 15 18 19 SHWTV (Escherichia coli, UniProt P23836) | 0.564

Block 4
Target: ABI1, truncated, D143A, DHFR fusion (Arabidopsis thaliana)
Method: DHFR PCA, deep sequencing
Matrix: yeast
Setting: methotrexate growth selection, single substitutions
Together with: (+)-ABA 58 µM
Reference: wild-type fitted maximum
Direction: higher = stronger binding
Parent: PYL1, truncated, DHFR fusion (Arabidopsis thaliana); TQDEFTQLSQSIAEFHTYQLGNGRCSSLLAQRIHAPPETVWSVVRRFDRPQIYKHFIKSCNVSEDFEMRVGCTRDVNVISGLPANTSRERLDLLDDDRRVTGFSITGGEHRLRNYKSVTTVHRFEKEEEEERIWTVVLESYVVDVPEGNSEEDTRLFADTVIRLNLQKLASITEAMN
Variant | relative binding score
K54A | 7.14%
A30S | 96.7%
P50L | -5.93%
A158T | 87.5%
V145E | 5.16%
S104Y | 12.3%
Q10R | 84.8%
R113W | 58.1%
C25M | 61.4%
N177H | 87.1%
F103L | 10.2%
G108V | -6.04%
S11R | 71.3%
N61G | 75.4%

Repeated from above (block 2):
Variant | binding fitness
L38G | -1.48 natural log
R30C | -1.5 natural log
M51S | -1.39 natural log
Q41E | -1.38 natural log
